{"data": "Published values of several laboratories", "note": "Parts stem from different laboratories: compare values within a part only. Positions count from the first letter of the parent shown."}
{"data": "Set 1", "target": "TAR DNA-binding protein 43, full length, His tag (TARDBP, Homo sapiens, UniProt Q13148, residues 1-414)", "method": "RNA Bind-n-Seq", "molecule type": "RNA", "sample": "in vitro", "concentration": "20 nM", "setting": "6-mer, flanks averaged, single round", "together with": "150 mM KCl", "reference": "input library", "direction": "higher = stronger binding"}
{"Sequence": "AACCAU", "6-mer enrichment (R)": 0.61}
{"Sequence": "UUGCUG", "6-mer enrichment (R)": 0.793}
{"Sequence": "GGAGGG", "6-mer enrichment (R)": 10.8}
{"Sequence": "AUGCCA", "6-mer enrichment (R)": 0.676}
{"Sequence": "GUCCGU", "6-mer enrichment (R)": 0.786}
{"Sequence": "CCAGCU", "6-mer enrichment (R)": 0.652}
{"Sequence": "CCACAA", "6-mer enrichment (R)": 0.649}
{"Sequence": "AUAAGA", "6-mer enrichment (R)": 0.828}
{"data": "Set 2", "Change": "L112M", "target": "ABI1, truncated, D143A, DHFR fusion (Arabidopsis thaliana)", "method": "DHFR PCA, deep sequencing", "sample": "yeast", "setting": "methotrexate growth selection, single substitutions", "reference": "wild-type fitted maximum", "direction": "higher = stronger binding", "starting sequence": "PYL1, truncated, DHFR fusion (Arabidopsis thaliana); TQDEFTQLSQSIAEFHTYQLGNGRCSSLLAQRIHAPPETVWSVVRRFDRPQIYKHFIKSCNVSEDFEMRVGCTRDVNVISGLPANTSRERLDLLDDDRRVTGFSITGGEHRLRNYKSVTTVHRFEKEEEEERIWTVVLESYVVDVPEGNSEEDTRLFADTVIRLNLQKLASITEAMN"}
{"conditions": "together with: (+)-ABA 17 µM", "relative binding score [%]": 78.8}
{"conditions": "together with: (+)-ABA 710 µM", "relative binding score [%]": 96.1}
{"conditions": "together with: (+)-ABA 0 µM", "relative binding score [%]": 17.4}
{"conditions": "together with: (+)-ABA 0.032 µM", "relative binding score [%]": 6.31}
{"conditions": "together with: (+)-ABA 2500 µM", "relative binding score [%]": 100}
{"conditions": "together with: (+)-ABA 1.4 µM", "relative binding score [%]": 26.9}
{"data": "Set 3", "target": "Hepatocyte nuclear factor 3-beta, forkhead domain (FOXA2, Homo sapiens, UniProt Q9Y261, residues 142-269)", "method": "protein-binding microarray", "molecule type": "double-stranded DNA, one strand shown", "sample": "in vitro", "concentration": "not given", "setting": "k-mer, scored over probes, only values ≥0.25", "direction": "higher = stronger binding", "Target sequence (chain)": "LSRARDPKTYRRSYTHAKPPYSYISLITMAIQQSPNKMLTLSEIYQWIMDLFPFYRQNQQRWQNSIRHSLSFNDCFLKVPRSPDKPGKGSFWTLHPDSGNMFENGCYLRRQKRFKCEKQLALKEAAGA"}
{"Sequence": "ATCATGTG", "E-score": 0.279}
{"Sequence": "ATAAGAAA", "E-score": 0.265}
{"Sequence": "GTGTACAA", "E-score": 0.347}
{"Sequence": "AATTTACA", "E-score": 0.252}
{"Sequence": "ATCCATAA", "E-score": 0.283}
{"Sequence": "TACGGCAA", "E-score": 0.281}
{"Sequence": "TTGATCAA", "E-score": 0.294}
{"Sequence": "ATACTATC", "E-score": 0.261}
{"data": "Mixed results", "starting sequence": "PafA, mature enzyme, eGFP fusion (Elizabethkingia meningoseptica, UniProt Q9KJX5); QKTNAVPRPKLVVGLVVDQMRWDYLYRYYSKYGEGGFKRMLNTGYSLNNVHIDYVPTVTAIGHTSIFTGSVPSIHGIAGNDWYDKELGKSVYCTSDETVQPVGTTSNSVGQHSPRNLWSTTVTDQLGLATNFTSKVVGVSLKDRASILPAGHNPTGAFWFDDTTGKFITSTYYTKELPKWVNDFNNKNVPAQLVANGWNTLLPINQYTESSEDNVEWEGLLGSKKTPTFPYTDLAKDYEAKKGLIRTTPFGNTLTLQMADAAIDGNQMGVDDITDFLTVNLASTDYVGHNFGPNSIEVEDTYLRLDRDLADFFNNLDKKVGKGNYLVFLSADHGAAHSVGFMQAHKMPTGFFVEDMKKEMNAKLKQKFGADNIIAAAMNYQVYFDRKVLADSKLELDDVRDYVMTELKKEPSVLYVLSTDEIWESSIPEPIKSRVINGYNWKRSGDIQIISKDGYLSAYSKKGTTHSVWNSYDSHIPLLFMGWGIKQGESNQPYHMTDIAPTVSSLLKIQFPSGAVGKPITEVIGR"}
{"Change": "P493G", "target": "vanadate, free oxyanion", "test": "microfluidic competitive inhibition", "system": "in vitro, cell-free expressed", "conditions": "not given, derived from inhibition constants, unchanged parent 676 nM", "scale": "lower = stronger binding", "measurement": "oxyanion analog dissociation constant", "value": "0.693 µM"}
{"note": "Some of these lines once more (set 2):"}
{"conditions": "together with: (+)-ABA 17 µM", "relative binding score [%]": 78.8}
{"conditions": "together with: (+)-ABA 710 µM", "relative binding score [%]": 96.1}
